Earlier results that unrelated publications cite.
Lines come from different studies, so protocols differ.

`c1ccc2c(c1)Cc1ccccc1-2` has a log Kow of 4.18 (experimental mean or OPERA estimate).
`Nc1cnn(-c2ccccc2)c(=O)c1Cl` has a log Kow of 1.14.
The log Kow of `Oc1ccc(Cc2ccc(O)cc2)cc1` is reported as 2.92.
`ClC1=C(Cl)[C@]2(Cl)[C@@H]3[C@@H]4C[C@@H]([C@H]5O[C@@H]45)[C@@H]3[C@@]1(Cl)C2(Cl)Cl` gave a log Kow of 6.2.
`c1cc2ccc3cccc4ccc(c1)c2c34` gave a log Kow of 4.88 (experimental mean).
`Cn1c(N)nc2c3cccnc3ccc21` gave a log Kow of 1.47.
The log Kow of `CCC(C)(c1ccc(O)cc1)c1ccc(O)cc1` is reported as 4.13.
With `ClC(Cl)=C(c1ccc(Cl)cc1)c1ccc(Cl)cc1` the log Kow was 6.51.
`CN1CC[C@]23c4c5ccc(O)c4O[C@H]2[C@@H](O)CC[C@H]3[C@H]1C5` — result for “log partition coefficient”: 1.13.
`C[Si](C)(C)O[Si](C)(C)O[Si](C)(C)C` has a log Kow of 6.79.
For `COc1ccc2c3c1O[C@H]1[C@@H](O)CC[C@H]4[C@@H](C2)N(C)CC[C@@]341`, “log partition coefficient” read 1.25.
`Fc1ccc(Oc2ccnc3cc(Cl)cc(Cl)c23)cc1` has a log Kow of 4.66.

Some of these lines once more:
`c1ccc2c(c1)Cc1ccccc1-2` has a log Kow of 4.18 (experimental mean or OPERA estimate).
`Nc1cnn(-c2ccccc2)c(=O)c1Cl` has a log Kow of 1.14.
